# Experimental data collected from several papers.
# Every numbered part comes from another study and shows a few of its results, in no order. Changes are numbered by the printed parent chain.

# Study 1
# Target: ABI1, truncated, D143A, DHFR fusion (Arabidopsis thaliana)
# Method: DHFR PCA, deep sequencing
# Matrix: yeast
# Setting: methotrexate growth selection, single substitutions
# With: (+)-ABA 1.4 µM
# Relative to: wild-type fitted maximum
# Reading: higher = stronger binding
# Starting sequence: PYL1, truncated, DHFR fusion (Arabidopsis thaliana); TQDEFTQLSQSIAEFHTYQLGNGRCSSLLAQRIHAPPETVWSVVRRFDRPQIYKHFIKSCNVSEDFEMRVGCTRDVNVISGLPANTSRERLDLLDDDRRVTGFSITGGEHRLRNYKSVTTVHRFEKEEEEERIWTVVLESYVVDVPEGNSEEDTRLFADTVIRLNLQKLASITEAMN
Change,relative binding score [%]
L112H,-21.9
T120M,3.93
Y53D,0.125
T39E,42.3
E174S,7.63
N114I,4.74
E131L,59.2

# Study 2
# Target: Centromere-binding protein 1, full length, N-terminal tag (CBF1, Saccharomyces cerevisiae, UniProt P17106, residues 1-351)
# UniProt P17106, sequence (whole entry, looked up): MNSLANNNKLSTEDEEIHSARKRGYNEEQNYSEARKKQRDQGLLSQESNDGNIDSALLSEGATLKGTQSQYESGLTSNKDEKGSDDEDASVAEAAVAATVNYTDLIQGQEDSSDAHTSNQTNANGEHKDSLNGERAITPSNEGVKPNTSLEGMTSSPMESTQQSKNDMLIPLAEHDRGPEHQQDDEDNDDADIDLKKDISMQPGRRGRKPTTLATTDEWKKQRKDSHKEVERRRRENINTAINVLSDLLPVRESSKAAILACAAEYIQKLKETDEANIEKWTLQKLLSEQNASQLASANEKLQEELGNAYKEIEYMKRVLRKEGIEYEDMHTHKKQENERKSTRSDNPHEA
# Method: protein-binding microarray
# Molecule type: double-stranded DNA, one strand shown
# Matrix: in vitro
# Tested at: 0.8 µM
# Setting: whole 60-bp probe, no competitor
# Reading: higher = stronger binding
# Constant ends, left off below: … GTCTTGATTCGCTTGACGCTGCTG
Sequence,fluorescence intensity [a.u.]
CTAGCAGATCCACGCCACGCCATCTCACTTACGTTC,513
CTAAAACATATAAATAGCGTGCATATTCTTCTCTTC,547
CTAGAAAATACTGCCCACGCAATTGTCCCTTTCTTC,481
CTATTTTGGTGAGGGTGCGTGACTTGAAACTAATTC,2200
CTACATCAAATTAATCACGTGCTTTTTAAAAAATTC,20900
GAATTCCTAGACATTCTCGTGGTCTTTTCTTTGTAG,576
GAACAAGCTAGAGATCACAAGCTAAAAAAGAACTAG,693

# Study 3
# Target: Transcription factor Sp1 (SP1, Homo sapiens, UniProt P08047, residues 1-785, full length assumed)
# UniProt P08047, sequence (whole entry, looked up): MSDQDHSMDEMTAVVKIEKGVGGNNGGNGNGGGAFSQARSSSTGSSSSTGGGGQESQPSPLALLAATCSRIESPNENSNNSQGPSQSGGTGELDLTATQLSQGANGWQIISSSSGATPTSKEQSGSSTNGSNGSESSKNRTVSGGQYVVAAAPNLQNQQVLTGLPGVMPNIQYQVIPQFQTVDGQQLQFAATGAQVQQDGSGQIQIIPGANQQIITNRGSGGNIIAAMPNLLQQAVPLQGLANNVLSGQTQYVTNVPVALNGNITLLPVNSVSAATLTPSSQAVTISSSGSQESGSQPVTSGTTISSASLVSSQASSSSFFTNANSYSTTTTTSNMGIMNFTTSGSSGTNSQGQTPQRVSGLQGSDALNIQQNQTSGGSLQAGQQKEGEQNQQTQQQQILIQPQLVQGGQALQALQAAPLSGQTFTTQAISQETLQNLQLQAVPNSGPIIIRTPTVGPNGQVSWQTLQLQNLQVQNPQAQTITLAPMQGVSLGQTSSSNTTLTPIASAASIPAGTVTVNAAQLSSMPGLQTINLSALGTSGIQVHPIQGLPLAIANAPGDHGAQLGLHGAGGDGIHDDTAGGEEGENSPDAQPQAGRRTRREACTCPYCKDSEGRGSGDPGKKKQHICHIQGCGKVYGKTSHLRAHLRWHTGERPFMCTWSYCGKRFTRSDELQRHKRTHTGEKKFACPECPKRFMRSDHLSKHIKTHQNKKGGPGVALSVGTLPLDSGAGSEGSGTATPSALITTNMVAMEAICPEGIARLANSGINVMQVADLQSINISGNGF
# Method: protein-binding microarray
# Molecule type: double-stranded DNA, one strand shown
# Matrix: in vitro
# Tested at: not given
# Setting: k-mer, scored over probes, only values ≥0.25
# Reading: higher = stronger binding
Sequence,E-score
GTGTGTTA,0.29
AGGGGTCG,0.276
ACCCGCCC,0.485
CCCAATAA,0.253
GTTATATA,0.315
GGGGGCGA,0.273
GTACTATA,0.29
GCGGGGAA,0.265
CCACCCTC,0.329
CCCCTTCA,0.328
CGCCGCCC,0.351
ACAAACAC,0.277

# Mixed results
Substance,target,test,test system,conditions,how to read,measurement,result
"PhoQ, residues 284 288 289 292 302 303 QWQEDG","PhoP, residues 12 14 15 18 19 TPWLV (Escherichia coli, UniProt P23836)","Sort-seq, refers to: YFP reporter",E. coli,"PhoQ-PhoP variant library, with: 10 µM Mg2+","relative to: high Mg2+ state, higher = stronger signaling",fold induction,0.803

# Excerpt of the above (study 3):
Sequence,E-score
AGGGGTCG,0.276
GTACTATA,0.29
ACAAACAC,0.277
